Measured values pooled from the literature.
Lines come from different studies, so protocols differ.

| Structure (SMILES) | target | assay | system | setting | how to read | measurement | value |
| --- | --- | --- | --- | --- | --- | --- | --- |
| Nc1ncc(-c2cc(-c3cnn(CC(F)(F)F)c3)ncc2F)nc1C(=O)NC1CNCC(F)C1 (centres unmarked) | DMPK2 | KINOMEscan |  | 1 µM | baseline: DMSO control | remaining binding | 68% |
| C=CC(=O)N1[C@@H](c2ccc3c(c2)OCO3)c2[nH]c3ccccc3c2C[C@H]1C(=O)N1CCN(C)CC1 | human cyclin E1 N112C-3xFLAG:CDK2 | co-IP with TMT proteomics, measured: PCBP1 |  | concentration not given, Q15365 | baseline: wild type DMSO | relative co-enrichment | 136% |
| Cc1c(C)c2cccnc2c2ncccc12.O=[N+]([O-])[O-].O=c1c(C=NN=C([S-])Nc2ccccc2)coc2ccccc12.[Cu+2] | supercoiled pUC19 DNA | oxidative DNA cleavage |  | concentration not given, catalase 0.1 U, added: ascorbic acid |  | nicked circular DNA | 14% |
| CN(Cc1cc(C2CC2)on1)C(=O)c1cccc(-c2ccc3c(c2)CCO3)c1 | acetyl-CoA synthetase 1 (Aspergillus fumigatus) | enzyme activity, inhibitor, coupled pyrophosphate |  | 25 µM | higher is more activity | reaction rate | 0.00119 a.u. |
| N=C(c1ccc([N+](=O)[O-])o1)N1CCC(NC(=O)c2cc(-c3ccc(F)cc3F)on2)(c2nc3ccccc3[nH]2)CC1 | STING pathway | inhibitor, RT-qPCR | mouse iBMDM | concentration not given, 2 h, added: diABZI 500 nM |  | IL6 mRNA level | inhibited |
| c1ccc(-c2n[nH]cc2-c2ccnc3ccccc23)nc1 | orf19.3456 Candida albicans | kinase binding, MIB/MS competition | Candida albicans lysate | 1 µM | baseline: DMSO | log2 fold change | -0.02 |
| N=C(NCC[C@H](NC(=O)c1noc(-c2cc(F)ccc2F)n1)c1nc2ccccc2[nH]1)c1ccc([N+](=O)[O-])o1 | STING pathway | inhibitor, immunoblot | mouse BMDM, wild type | 5 µM, 1 h pretreatment, added: diABZI |  | TBK1 and IRF3 phosphorylation | inhibited |
| C=CC(=O)Nc1cccc(Cn2ncc3cnc(Nc4cnn(CCOC)c4)nc32)c1 | human CTK | KINOMEscan |  | 100 nM | baseline: control | binding | 100% |

Excerpt of the above:
| Structure (SMILES) | target | assay | system | setting | how to read | measurement | value |
| --- | --- | --- | --- | --- | --- | --- | --- |
| N=C(c1ccc([N+](=O)[O-])o1)N1CCC(NC(=O)c2cc(-c3ccc(F)cc3F)on2)(c2nc3ccccc3[nH]2)CC1 | STING pathway | inhibitor, RT-qPCR | mouse iBMDM | concentration not given, 2 h, added: diABZI 500 nM |  | IL6 mRNA level | inhibited |
